Measurements gathered from unrelated publications.
“And” joins repeats or separate records; there may be more than shown. ± marks the error that the study gave.
HCRTR2 del254-292/I293E/K294R/L160H/M161K/Q254E: Orexin receptor type 2 (HCRTR2, Homo sapiens, UniProt O43614, del254-292/I293E/K294R/L160H/M161K/Q254E)

Structure (SMILES)	tested on	test	system	conditions	scale	quantity	value
CCCCCCCC[C@H]1O[C@H]1C/C=C/C=C/[C@H](O)CC(=O)NC1=C[C@](C)(CC)OC1=O	Na(+)-translocating NADH-quinone reductase subunit B, whole Na+-NQR complex (nqrB, Vibrio cholerae serotype O1, UniProt Q9KPS2, G141A)	binding, isothermal titration calorimetry		20 °C, NqrB-G141A mutant		ΔH	-68 ± 23 kcal/mol
O=C(c1ccc(Cl)cc1)N1CCN2C(=O)N(OC(=O)N3CCOc4ccccc43)C(=O)C2C1 (stereo not shown)	Kallikrein-6 (Homo sapiens, UniProt Q92876)	enzyme activity, inhibitor, MS-based ABPP	SW-620 in situ	10 µM, 2 h, 37 °C	baseline: compound over DMSO, lower = stronger inhibition	median ratio	1.07
COc1ccc(N2C(=O)N(c3c(C)cccc3Cl)Cc3cnc(Nc4ccc(C5CCN(C)CC5)cc4OC)nc32)nc1	Sphingosine kinase 2 (SPHK2, Homo sapiens, UniProt Q9NRA0)	kinase activity		0.5 µM		inhibition	-2.46%
O=C(Nc1cnccc1Cl)N1CCN(Cc2ccc3c(c2)OC(F)(F)O3)CC1	BAR/IMD domain-containing adapter protein 2 (Baiap2, Rattus norvegicus, UniProt Q6GMN2)	competitive ABPP with azido-FP probe, refers to: BAIAP2	rat brain membrane fraction	10 µM, unit not given	baseline: DMSO	probe labelling	-2.1
OC(Cn1cncn1)(Cn1cncn1)c1ccc(F)cc1F	CDR1 (Candida albicans, UniProt Q5ANA3)	malachite green phosphate release		4 µM	baseline: untreated	relative ATPase activity	97.9%
CN(CCN1CCC(OC(=O)Nc2ccccc2-c2ccccc2)CC1)C(=O)c1ccc(CN2CCC(C(N)=O)CC2)cc1	rat muscarinic receptor non-selective	radioligand binding		1 µM		inhibition	100%
CNC(=O)[C@@H](c1ccccc1)N1CCc2cc(OC)c(OC)cc2[C@@H]1CCc1ccc(C(F)(F)F)cc1	HCRTR2 del254-292/I293E/K294R/L160H/M161K/Q254E	fluorescence sensor response, fluorescence		concentration not given		normalised fluorescence response	-0.95 and -0.62 and -1.2 and 2.92 and 0.819 and 1.09 and -1.02
O=c1[nH]c2nc(-c3ccccc3)sc2c(=O)n1O	Ketol-acid reductoisomerase (NADP(+)) (ilvC, Mycobacterium tuberculosis, UniProt P9WKJ7)	slow-binding inhibitor		no pre-incubation		kon	2260 M⁻¹ s⁻¹
CNC1(c2ccccc2Cl)CCCCC1=O (racemic)	D(2) dopamine receptor (DRD2, Homo sapiens, UniProt P14416)	radioligand binding, antagonist, radioligand displacement		30 µM, short isoform		inhibition	4%
C[C@]12N[C@H](Cc3ccccc31)c1ccccc12	NMDA receptor GluN1/GluN2B lacking NTD	ion current, inhibitor, oocyte voltage clamp		50 nM		onset time constant	6.7 ± 1 s
CO[C@H]1C[C@@H]2CC[C@@H](C)[C@@](O)(O2)C(=O)C(=O)N2CCCC[C@H]2C(=O)O[C@H]([C@H](C)C[C@@H]2CC[C@@H](OC(=O)NCCOCCOCCOCCOCCOCCOCCOCCOCCC(=O)N3CCc4cc(Cn5nc(-c6ccc7oc(N)nc7c6)c6c(N)ncnc65)ccc4C3)[C@H](OC)C2)C[C@@H](O)[C@H](C)/C=C(\C)[C@@H](O)[C@@H](OC)C(=O)[C@H](C)C[C@H](C)/C=C/C=C/C=C/1C			patients with advanced solid tumours	intravenous, 10 mg weekly, grade 3 or higher		headache incidence	0%
c1ccc2cc([C@]34CNC[C@H]3C4)ccc2c1	Sodium-dependent dopamine transporter (SLC6A3, Homo sapiens, UniProt Q01959, V152A)	inhibitor, [3H]dopamine uptake		1 nM, V152A mutant	baseline: no inhibitor	dopamine uptake	88.8% and 96.6% and 95.3%
Brc1ccc2c(c1)C(c1ccccn1)=NCc1c(-c3cnco3)ncn1-2	GABRG2/GABRA3, with β3 subunit (Homo sapiens, UniProt P18507+P34903)	[3H]flunitrazepam binding			baseline: α3β3γ2 over α1β3γ2 GABA-A	selectivity ratio	1.62
COC(=O)[C@@H](NC(=O)c1nn(Cc2ccc(F)cc2)c2ccccc12)C(C)(C)C	Cannabinoid receptor 1 (CNR1, Homo sapiens, UniProt P21554)	GTPase			baseline: compound	Gi GTP turnover median	100%
C[C@]12CCC(=O)C=C1CC[C@@H]1[C@@H]2CC[C@]2(C)C(=O)CC[C@@H]12	Aromatase (CYP19A1, Homo sapiens, UniProt P11511)					kon	1.1e+07 M⁻¹ s⁻¹
COc1cc(Nc2ncc(F)c(Nc3ccc4c(n3)NC(=O)C(C)(C)O4)n2)cc(OC)c1OC	gabapentin binding site	binding				IC50	> 10 µM
C[C@H]1CN(c2n[nH]c3nc(N[C@H]4CC[C@H](NS(=O)(=O)CCC(F)(F)F)CC4)ncc23)CCO1	Exportin-4 (Homo sapiens, UniProt Q9C0E2)	Kinobeads competition, refers to: XPO4		0.032 µM, unit not given	baseline: vehicle	remaining binding	1.34
COc1ccc(CN(C(=O)[C@@H](N)Cc2c(C)cc(C(N)=O)cc2C)[C@@H](C)c2ncc(-c3ccccc3)[nH]2)cc1C(=O)O	Cholinesterase (BCHE, Homo sapiens, UniProt P06276)			concentration not given, Triton		efficacy	-77.8 ± 18.9%
Oc1ccc2c3c1O[C@H]1[C@@H](O)CC[C@@]4(O)[C@@H](C2)N(CC2CCC2)CC[C@]314	G-protein coupled receptor family C group 6 member A (GPRC6A, Homo sapiens, UniProt Q5T6X5)	β-arrestin recruitment, TANGO luminescence, refers to: GPRC6A		concentration not given	baseline: basal luminescence	log2 fold change	0.307
CN(C(=O)n1cnc(-c2ccc[n+]([O-])c2)c1)C1CCCCC1	Histamine H1 receptor (HRH1, Homo sapiens, UniProt P35367)	radioligand binding		10 µM, together with: [3H]pyrilamine		inhibition	13%
CC[C@H](C)[C@H](NC(=O)[C@H](Cc1ccccc1)NC(=O)[C@H](CCC(=O)O)NC(=O)[C@H](CCCNC(=N)N)NC(=O)[C@H](C)NC(=O)[C@H](C)NC(=O)[C@H](CCC(N)=O)NC(=O)[C@H](CCC(=O)O)NC(=O)[C@H](CCC(=O)O)NC(=O)[C@H](CC(C)C)NC(=O)[C@H](Cc1ccc(O)cc1)NC(=O)[C@H](CO)NC(=O)[C@H](CO)NC(=O)[C@@H](NC(=O)[C@H](CC(=O)O)NC(=O)[C@H](CO)NC(=O)[C@@H](NC(=O)[C@H](Cc1ccccc1)NC(=O)[C@@H](NC(=O)CNC(=O)[C@H](CCC(=O)O)NC(=O)[C@H](C)NC(=O)CCc1c[nH]cn1)[C@@H](C)O)[C@@H](C)O)C(C)C)C(=O)N[C@@H](C)C(=O)N[C@@H](Cc1c[nH]c2ccccc12)C(=O)N[C@@H](CC(C)C)C(=O)N[C@H](C(=O)N[C@@H](CCCNC(=N)N)C(=O)NCC(=O)N[C@@H](CCCNC(=N)N)C(=O)N[C@@H](CCCCNC(=O)COCCOCCNC(=O)COCCOCCNC(=O)CC[C@H](NC(=O)CCCCCCCCCCCCCCCCC(=O)O)C(=O)O)C(=O)NCC(=O)NCC(=O)N[C@@H](CO)C(=O)N[C@@H](CCCCNc1c(NCCCCCN(O)C(=O)CCC(=O)NCCCCCN(O)C(=O)CCC(=O)NCCCCCN(O)C(C)=O)c(=O)c1=O)C(=O)O)C(C)C [zirconium-89 labelled]			rat, intestine	sc, 3 nmol/kg, 168 h, ex vivo		tissue uptake	0.09 %ID/g
C=CCN1CC[C@]23c4c5ccc(O)c4O[C@H]2C(=O)CC[C@]3(O)[C@H]1C5	Voltage-dependent N-type calcium channel subunit alpha-1B (Homo sapiens, UniProt Q00975)			concentration not given		inhibition	3%
Clc1cc(Cl)cc(N2CCNCC2)c1	Muscarinic acetylcholine receptor M4 (CHRM4, Homo sapiens, UniProt P08173)	ERK1/2 phosphorylation, agonist	CHO cells			Emax	< 10%
Cc1cc(OCC(=O)O)cc(C)c1Cc1ccc(O)c(C(C)C)c1	Thyroid hormone receptor alpha (THRA, Homo sapiens, UniProt P10827)					Hill slope	2.98
Cc1ccc(-n2nccn2)c(C(=O)N2CCN(c3nc4cc(Cl)ccc4o3)CC[C@H]2C)c1	HCRTR2 del254-292/I293E/K294R/L160H/M161K/Q254E	fluorescence sensor response, fluorescence		concentration not given, together with: OXA		normalised fluorescence response	-0.195 and -0.316 and -0.126 and -0.303 and -0.166 and -0.00185
